Experimental data of several laboratories.
Parts stem from different laboratories: compare values within a part only. “And” joins repeats or separate records; there may be more than shown.
Chain of UniProt P32298 (whole entry, looked up): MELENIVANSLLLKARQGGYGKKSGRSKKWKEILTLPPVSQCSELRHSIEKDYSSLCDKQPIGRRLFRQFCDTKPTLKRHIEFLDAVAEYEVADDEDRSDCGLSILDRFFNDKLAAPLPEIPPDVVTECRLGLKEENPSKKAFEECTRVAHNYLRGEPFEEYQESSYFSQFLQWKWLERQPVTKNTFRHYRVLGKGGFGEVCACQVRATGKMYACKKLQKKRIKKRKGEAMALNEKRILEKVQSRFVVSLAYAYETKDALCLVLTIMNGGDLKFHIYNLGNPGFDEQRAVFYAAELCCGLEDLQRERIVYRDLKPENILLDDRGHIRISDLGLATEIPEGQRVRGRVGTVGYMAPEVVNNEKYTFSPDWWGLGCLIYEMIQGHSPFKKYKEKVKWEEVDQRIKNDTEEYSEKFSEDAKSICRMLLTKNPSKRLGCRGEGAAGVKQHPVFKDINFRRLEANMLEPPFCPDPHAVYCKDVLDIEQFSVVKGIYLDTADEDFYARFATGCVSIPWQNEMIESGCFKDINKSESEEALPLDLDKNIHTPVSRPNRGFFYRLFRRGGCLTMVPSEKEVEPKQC
Chain of UniProt P25098 (whole entry, looked up): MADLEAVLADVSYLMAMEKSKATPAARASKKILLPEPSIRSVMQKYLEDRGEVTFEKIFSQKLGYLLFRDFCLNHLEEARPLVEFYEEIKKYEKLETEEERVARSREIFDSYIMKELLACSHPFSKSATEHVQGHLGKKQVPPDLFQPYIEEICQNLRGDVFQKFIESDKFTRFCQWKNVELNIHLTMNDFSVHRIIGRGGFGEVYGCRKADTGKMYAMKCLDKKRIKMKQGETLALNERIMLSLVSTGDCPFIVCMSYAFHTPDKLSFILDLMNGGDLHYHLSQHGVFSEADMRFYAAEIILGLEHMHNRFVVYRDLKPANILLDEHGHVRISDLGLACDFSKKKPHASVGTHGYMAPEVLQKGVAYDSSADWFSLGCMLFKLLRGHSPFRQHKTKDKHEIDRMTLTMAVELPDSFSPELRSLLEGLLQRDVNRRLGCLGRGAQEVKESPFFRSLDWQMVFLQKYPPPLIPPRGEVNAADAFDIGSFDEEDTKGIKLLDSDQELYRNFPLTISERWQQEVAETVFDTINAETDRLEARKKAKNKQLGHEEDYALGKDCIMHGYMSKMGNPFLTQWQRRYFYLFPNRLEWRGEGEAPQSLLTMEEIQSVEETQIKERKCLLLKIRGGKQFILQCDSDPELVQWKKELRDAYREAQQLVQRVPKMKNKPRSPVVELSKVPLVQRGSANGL
Chain of UniProt Q15835 (whole entry, looked up): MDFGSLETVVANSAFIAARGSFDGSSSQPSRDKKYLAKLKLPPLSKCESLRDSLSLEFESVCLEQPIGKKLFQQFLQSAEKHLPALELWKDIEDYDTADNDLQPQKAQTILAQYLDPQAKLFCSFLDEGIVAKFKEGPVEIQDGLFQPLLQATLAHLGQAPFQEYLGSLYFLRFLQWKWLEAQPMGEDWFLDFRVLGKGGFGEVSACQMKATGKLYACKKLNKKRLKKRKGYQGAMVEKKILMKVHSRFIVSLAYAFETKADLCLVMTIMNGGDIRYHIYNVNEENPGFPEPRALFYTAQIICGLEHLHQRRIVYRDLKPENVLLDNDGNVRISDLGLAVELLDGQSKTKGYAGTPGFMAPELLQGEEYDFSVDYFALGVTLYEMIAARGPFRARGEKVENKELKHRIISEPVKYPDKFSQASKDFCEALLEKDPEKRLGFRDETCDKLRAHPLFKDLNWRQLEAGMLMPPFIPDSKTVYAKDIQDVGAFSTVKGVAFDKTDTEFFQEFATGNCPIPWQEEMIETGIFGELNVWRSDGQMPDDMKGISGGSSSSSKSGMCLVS
Chain of UniProt Q8WU08 (whole entry, looked up): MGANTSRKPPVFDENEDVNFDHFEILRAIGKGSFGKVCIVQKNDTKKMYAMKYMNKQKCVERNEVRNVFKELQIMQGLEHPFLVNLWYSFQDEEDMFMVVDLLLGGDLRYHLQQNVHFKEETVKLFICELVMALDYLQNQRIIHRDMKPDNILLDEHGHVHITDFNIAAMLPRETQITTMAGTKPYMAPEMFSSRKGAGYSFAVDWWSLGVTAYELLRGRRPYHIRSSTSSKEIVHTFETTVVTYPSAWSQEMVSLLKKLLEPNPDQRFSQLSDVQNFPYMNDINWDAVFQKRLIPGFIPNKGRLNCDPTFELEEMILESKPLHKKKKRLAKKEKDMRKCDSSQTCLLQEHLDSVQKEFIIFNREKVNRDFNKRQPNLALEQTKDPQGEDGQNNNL

Sample 1
SMILES: COc1cc(-c2nc3ccc(C(=O)NCCCN4CCN(c5cccc(C)c5C)CC4)cc3n2C2CCC2)cc(OC)c1OC
target | effect on | technique | tested at | remaining binding [%]
EPHA3 (Homo sapiens, UniProt P29320) |  | KINOMEscan | 1000 nM | 98
STK32A (Homo sapiens, UniProt Q8WU08) | binding | competition with immobilised ligand | 1 µM | 98
GRK1 (Homo sapiens, UniProt Q15835) | binding | competition with immobilised ligand | 1 µM | 90
PRKACB (Homo sapiens, UniProt P22694) | binding | competition with immobilised ligand | 1 µM | 100
TNK2 (Homo sapiens, UniProt Q07912) | binding | competition with immobilised ligand | 1 µM | 79
MST1R (Homo sapiens, UniProt Q04912) | binding | competition with immobilised ligand | 1 µM | 100
EPHA2 (Homo sapiens, UniProt P29317) | binding | competition with immobilised ligand | 1 µM | 100
MAP3K5 (Homo sapiens, UniProt Q99683) | binding | competition with immobilised ligand | 1 µM | 96
FGFR4 (Homo sapiens, UniProt P22455) | binding | competition with immobilised ligand | 1 µM | 99
PIM1 (Homo sapiens, UniProt P11309) | binding | competition with immobilised ligand | 1 µM | 89
PIK3CA (Homo sapiens, UniProt P42336, E545A) | binding | competition with immobilised ligand | 1 µM | 100
GRK2 (Homo sapiens, UniProt P25098) | binding | competition with immobilised ligand | 1 µM | 96
PDGFRA (Homo sapiens, UniProt P16234) | binding | competition with immobilised ligand | 1 µM | 92
GRK4 (Homo sapiens, UniProt P32298) | binding | competition with immobilised ligand | 1 µM | 88
ULK1 (Homo sapiens, UniProt O75385) | binding | competition with immobilised ligand | 1 µM | 90
CDKL5 (Homo sapiens, UniProt O76039) | binding | competition with immobilised ligand | 1 µM | 96
MERTK (Homo sapiens, UniProt Q12866) | binding | competition with immobilised ligand | 1 µM | 73

Sample 2 — effect on: thermal unfolding; technique: differential scanning fluorimetry; tested at: 5.5 µM; reading: higher = more unfolded
SMILES: C[C@@H]1CN(c2ccc(-c3cc(C(=O)NCCOCCOCCOCCOCCOCCOCCNC(=O)/C=C/c4[nH]cc(C(=O)N[C@@H](CC(N)=O)c5ccc(F)c(Cl)c5)c4-c4ccc(Cl)cc4F)ccc3F)cc2NC(=O)c2ccc(F)cc2C(F)(F)F)C[C@H](C)N1C
DCAF1: DDB1- and CUL4-associated factor 1 (DCAF1, Homo sapiens, UniProt Q9Y4B6)
Chain of UniProt Q9Y4B6 (whole entry, looked up): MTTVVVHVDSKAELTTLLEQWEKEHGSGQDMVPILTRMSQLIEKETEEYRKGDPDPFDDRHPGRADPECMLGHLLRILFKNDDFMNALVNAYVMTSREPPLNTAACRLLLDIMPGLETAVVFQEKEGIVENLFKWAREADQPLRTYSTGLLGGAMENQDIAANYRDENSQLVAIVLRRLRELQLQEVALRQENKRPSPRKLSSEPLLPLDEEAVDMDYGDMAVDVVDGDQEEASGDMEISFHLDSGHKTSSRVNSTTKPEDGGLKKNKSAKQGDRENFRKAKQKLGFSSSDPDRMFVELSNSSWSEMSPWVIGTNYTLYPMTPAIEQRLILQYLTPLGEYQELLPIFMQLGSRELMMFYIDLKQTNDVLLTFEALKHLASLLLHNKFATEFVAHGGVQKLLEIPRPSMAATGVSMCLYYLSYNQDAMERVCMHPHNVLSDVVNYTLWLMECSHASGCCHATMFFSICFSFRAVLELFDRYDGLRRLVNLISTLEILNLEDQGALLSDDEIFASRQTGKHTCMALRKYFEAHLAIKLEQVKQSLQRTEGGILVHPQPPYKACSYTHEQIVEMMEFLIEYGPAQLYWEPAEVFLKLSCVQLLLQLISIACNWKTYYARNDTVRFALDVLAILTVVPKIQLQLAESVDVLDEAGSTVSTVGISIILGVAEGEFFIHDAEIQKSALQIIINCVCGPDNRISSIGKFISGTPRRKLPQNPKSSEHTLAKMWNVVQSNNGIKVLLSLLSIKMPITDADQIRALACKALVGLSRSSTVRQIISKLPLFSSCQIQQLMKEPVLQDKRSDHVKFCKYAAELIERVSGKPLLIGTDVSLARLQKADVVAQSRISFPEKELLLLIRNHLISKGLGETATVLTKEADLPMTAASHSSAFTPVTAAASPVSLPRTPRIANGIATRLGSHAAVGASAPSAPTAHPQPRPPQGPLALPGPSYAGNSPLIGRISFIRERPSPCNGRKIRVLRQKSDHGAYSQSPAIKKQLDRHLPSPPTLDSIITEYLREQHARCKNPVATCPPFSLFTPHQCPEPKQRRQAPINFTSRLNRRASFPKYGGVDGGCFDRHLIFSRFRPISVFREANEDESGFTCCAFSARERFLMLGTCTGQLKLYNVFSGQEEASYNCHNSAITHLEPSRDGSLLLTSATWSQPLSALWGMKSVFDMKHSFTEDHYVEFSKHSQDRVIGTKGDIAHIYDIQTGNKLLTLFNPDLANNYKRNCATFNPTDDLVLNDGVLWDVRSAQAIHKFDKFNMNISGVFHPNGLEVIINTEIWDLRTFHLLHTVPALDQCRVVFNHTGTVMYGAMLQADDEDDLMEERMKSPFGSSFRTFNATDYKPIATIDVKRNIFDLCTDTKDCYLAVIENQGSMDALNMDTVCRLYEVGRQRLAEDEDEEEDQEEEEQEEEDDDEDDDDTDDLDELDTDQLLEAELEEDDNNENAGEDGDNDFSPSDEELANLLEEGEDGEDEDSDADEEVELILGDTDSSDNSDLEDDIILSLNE
target | temperature | SYPRO Orange fluorescence
DCAF1 | 84.61 °C | 36300 a.u.
DCAF1 | 75.01 °C | 43700 a.u.
DCAF1 | 78.61 °C | 40900 a.u.
DCAF1 | 40.6 °C | 11800 a.u.
WDR5 (Homo sapiens, UniProt P61964) | 70.81 °C | 30400 a.u.
DCAF1 | 69.41 °C | 48900 a.u.
DCAF1 | 46.6 °C | 15400 a.u.

Single results of other studies
PKMYT1: Membrane-associated tyrosine- and threonine-specific cdc2-inhibitory kinase (PKMYT1, Homo sapiens, UniProt Q99640)
Chain of UniProt Q99640 (whole entry, looked up): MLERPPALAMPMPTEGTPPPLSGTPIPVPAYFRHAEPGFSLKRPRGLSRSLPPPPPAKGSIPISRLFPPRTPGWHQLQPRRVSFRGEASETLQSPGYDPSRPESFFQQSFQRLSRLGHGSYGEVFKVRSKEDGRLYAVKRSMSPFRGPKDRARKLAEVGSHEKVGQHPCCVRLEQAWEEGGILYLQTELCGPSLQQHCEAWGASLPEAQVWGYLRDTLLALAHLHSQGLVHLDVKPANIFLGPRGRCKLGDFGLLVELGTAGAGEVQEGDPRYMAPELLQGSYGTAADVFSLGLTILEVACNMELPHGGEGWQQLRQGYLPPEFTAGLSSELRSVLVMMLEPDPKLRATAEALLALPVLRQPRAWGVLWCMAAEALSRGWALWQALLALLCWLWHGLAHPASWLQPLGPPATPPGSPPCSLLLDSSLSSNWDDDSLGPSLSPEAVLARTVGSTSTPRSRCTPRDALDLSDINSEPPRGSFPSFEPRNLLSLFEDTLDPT
SLC6A19: Sodium-dependent neutral amino acid transporter B(0)AT1 (SLC6A19, Homo sapiens, UniProt Q695T7)
Chain of UniProt Q695T7 (whole entry, looked up): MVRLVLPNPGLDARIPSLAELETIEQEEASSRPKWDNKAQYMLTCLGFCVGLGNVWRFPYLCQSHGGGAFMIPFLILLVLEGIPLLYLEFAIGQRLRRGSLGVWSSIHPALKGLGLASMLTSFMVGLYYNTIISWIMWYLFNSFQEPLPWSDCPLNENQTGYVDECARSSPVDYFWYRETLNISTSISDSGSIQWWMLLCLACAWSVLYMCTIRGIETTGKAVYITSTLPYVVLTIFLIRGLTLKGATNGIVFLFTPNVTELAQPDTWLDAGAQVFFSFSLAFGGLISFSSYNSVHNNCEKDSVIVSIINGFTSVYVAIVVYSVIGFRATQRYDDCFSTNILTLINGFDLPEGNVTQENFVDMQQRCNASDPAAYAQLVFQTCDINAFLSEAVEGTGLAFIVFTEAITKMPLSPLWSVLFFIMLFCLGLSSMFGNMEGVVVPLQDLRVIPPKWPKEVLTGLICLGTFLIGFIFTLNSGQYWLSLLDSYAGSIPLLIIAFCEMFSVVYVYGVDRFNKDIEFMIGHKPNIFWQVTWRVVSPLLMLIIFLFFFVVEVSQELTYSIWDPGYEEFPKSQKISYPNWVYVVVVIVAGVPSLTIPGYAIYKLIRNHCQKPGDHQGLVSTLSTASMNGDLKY
SMILES | tested on | test | test system | setting | how to read | endpoint | result
Cc1ccc(O)c(C)c1-c1cnc2[nH]c(-c3cnc(N4CCC(CCN5CCN(c6cc7c(cc6F)c(N6CCC(=O)NC6=O)nn7C)CC5)CC4)nc3)cc2c1C#N | PKMYT1 | binding, HTRF |  | 111.11 nM |  | inhibition | 100% and 99.3%
CCNC(=O)COc1cc(C)c(Cl)c(C)c1 | SLC6A19 | inhibitor, L-[14C]leucine uptake | CHO-BC cells | second repeat |  | IC50 | 480 nM
CCN1/C(=C/C=C2\CCCC(/C=C/C3=[N+](CC)c4ccccc4C3(C)C)=C2NCCCCCCCCN2CCC(Nc3nc4ccccc4n3Cc3ccc(F)cc3)CC2)C(C)(C)c2ccccc21 |  | dynamic light scattering | saline and PBS at various pH | range |  | aggregate particle size | 200 to 1000 nm
Cc1ncsc1-c1ccc(C2(NC(=O)C3CC(O)CN3C(=O)C(NC(=O)c3ccc(COc4c(-c5c(C)c(F)cc6[nH]ncc56)c(C5CC5)cc5c(N6CC7CC6CN7)nc(OC6CCOCC6)nc45)cc3)C(C)(C)C)CC2)cc1 (centres unmarked) | von Hippel-Lindau disease tumor suppressor, with Elongin B/C (VHL, Homo sapiens, UniProt P40337) | SPR, single-cycle | immobilized VCB complex | binary, geometric mean |  | koff | 0.045 s⁻¹
Cc1ccc(O)c(C)c1-c1cnc2[nH]c(-c3cnc(N4CCC(CN5CCN(c6cc7c(cc6F)n(C6CCC(=O)NC6=O)c(=O)n7C)CC5)CC4)nc3)cc2c1C#N (centres unmarked) |  |  | CD-1 mouse | intravenous, dose not given, 6 h |  | plasma concentration | not detected
Cc1ncsc1-c1ccc(C(CO)NC(=O)C2CC(O)CN2C(=O)C(NC(=O)c2ccc(COc3c(-c4c(C)c(F)cc5[nH]ncc45)c(C4CC4)cc4c(N5CC6CC5CN6)nc(OC5CCOCC5)nc34)cc2)C(C)C)cc1 (centres unmarked) | ASPC1 | cell growth or viability, ATP luminescence |  |  |  | IC50 | 128 nM
Cc1cc(OCC(=O)NC(C)C)ccc1Br | SLC6A19 | FLIPR membrane potential | CHO-BC | concentration not given | reference: background subtracted | remaining activity | -2.68%
Cc1ncsc1-c1ccc(C2(NC(=O)C3CC(O)CN3C(=O)C(NC(=O)c3ccc(COc4c(-c5c(C)c(F)cc6[nH]ncc56)c(C5CC5)cc5c(N6CC7CC6CN7)nc(OC6CCOCC6)nc45)cc3)C(C)C)CC2)cc1 (centres unmarked) | KRAS/VHL, GDP-bound (Homo sapiens, UniProt P01116+P40337, G12D) | SPR, single-cycle | immobilized KRAS G12D | ternary, geometric mean, together with: VCB complex |  | koff | 0.054 s⁻¹
Cc1ccc(O)c(C)c1-c1cnc2[nH]c(-c3cnc(N4CC5(CC(CN6CCN(c7ccc(NC8CCC(=O)NC8=O)cc7F)CC6)C5)C4)nc3)cc2c1C#N (centres unmarked) |  | ultracentrifugation | mouse plasma | 2 µM, 4 h, pH 7.4 |  | fraction unbound | 0.011
Cc1ncsc1-c1ccc(C(CO)NC(=O)C2CC(O)CN2C(=O)C(C(C)C)n2cc(-c3ccc(COc4c(-c5c(C)c(F)cc6[nH]ncc56)c(C5CC5)cc5c(N6CC7CC6CN7)nc(OC6CCOCC6)nc45)cc3)nn2)cc1 (centres unmarked) |  |  | GP2d xenograft, mouse | 30 mg/kg twice weekly, day 14 |  | tumour volume | 99.5 mm3 and 184 mm3 and 164 mm3 and 171 mm3 and 133 mm3
Cc1ccc(O)c(C)c1-c1cnc2[nH]c(-c3cnc(N4CCC5(CC4)CC(N4CCN(c6ccc7c(c6)C(=O)N(C6CCC(=O)NC6=O)C7=O)CC4)CO5)nc3)cc2c1C#N (mixture of isomers) | PKMYT1 | binding, HTRF |  | 0.15 nM |  | inhibition | 2.01% and 3.73%

For quick reference, copied from above (sample 2):
target | temperature | SYPRO Orange fluorescence
DCAF1 | 69.41 °C | 48900 a.u.
DCAF1 | 84.61 °C | 36300 a.u.
DCAF1 | 46.6 °C | 15400 a.u.
DCAF1 | 78.61 °C | 40900 a.u.
